# Experimental data pooled from the literature.
# Protocols differ between the studies behind these lines. Values joined by “and” are separate records of one study, mostly repeats; a detail may differ. Numbers after ± are the reported error.
# USP14: Ubiquitin carboxyl-terminal hydrolase 14 (USP14, Homo sapiens, UniProt P54578)
# SLC6A9: Sodium- and chloride-dependent glycine transporter 1 (SLC6A9, Homo sapiens, UniProt P48067)
# Gria2/Glutamate receptor 3: Gria2/Glutamate receptor 3 (Rattus norvegicus, UniProt P19491+P19492)
# PPO3: PPO3 (Agaricus bisporus, UniProt C7FF04)
Compound,target or system,test,system,setting,how to read,endpoint,value
Cc1ncc2[nH]c(=O)n(-c3cnc(Oc4cccc5c4C(C)(C)CO5)c(Cl)c3C)c2n1,"KCNC1 (Homo sapiens, UniProt P48547)","potassium current, manual patch clamp",,"1 µM, hyperpolarizing -100 mV",,area under tail current,increased
CCCCCCCCCCCCCCCC(=O)NCCCC[C@H](NC(=O)[C@H](CCC(=O)O)NC(=O)[C@H](Cc1ccc(O)cc1)NC(=O)[C@H](CCC(=O)O)NC(=O)COCC(=O)NCCCOCCOCCOCCCNC(=O)[C@H](Cc1c[nH]c2ccccc12)NC(=O)[C@H](CCCCN)NC(=O)[C@H](C)NC(=O)[C@H](CCCCNC(=N)N)NC(=O)[C@H](CCC(N)=O)NC(=O)[C@H](Cc1c[nH]cn1)NC(=O)[C@H](CCSC)NC(=O)[C@H](CC(C)C)NC(=O)[C@H](CCC(N)=O)NC(=O)[C@@H](NC(=O)[C@H](CCC(=O)O)NC(=O)C(C)(C)NC(=O)[C@@H](NC(=O)C(C)(C)N)C(C)C)[C@@H](C)CC)C(=O)N[C@@H](CCC(=O)O)C(=O)N[C@@H](Cc1ccc(O)cc1)C(=O)N[C@@H](CCC(=O)O)C(N)=O,"PTH1R (Homo sapiens, UniProt Q03431)",agonist,Saos-2 with cAMP reporter,"3.16 nM, 90 min, washout after 30 min ligand",higher = more cAMP,cAMP luminescence AUC,1520 a.u.
CC(=O)N1CCN(CCN2C(C)=CC(=C(C#N)C#N)C=C2C)CC1,USP14,"enzyme activity, inhibitor",,17 µM,,inhibition,3%
OC1Cc2ccccc2CC1N1CCC(c2ccc(Br)cc2)CC1 (racemic),"SIGMAR1 (Homo sapiens, UniProt Q99720)",,"rat liver (sigma2), human sigma1",,baseline: Ki sigma2 over Ki sigma1,selectivity ratio,8.1
COC1CN([C@H]2CC[C@H]([C@@]3(C)Oc4c(Cl)cc(C(=O)NCc5c(SC)cc(C)[nH]c5=O)c(C)c4O3)CC2)C1,,"RNA-seq, refers to: GIPC2","human, whole blood","dose not given, 24 h",baseline: pretreatment baseline,log2 fold change,4.11
"CC(=O)C12NC(C)(C)CC1(C)C(=O)C1=C2c2c(c3c4n2C(C)(C)CC2=C4C4(CC(C)(C)NC(C)(C4)C2=O)CC3(C)C)C(=O)C(C)(C)N1 (single isomer, unassigned; (+))","Glutamate NMDA receptor; GRIN1/GRIN2B (GRIN1/GRIN2B, Homo sapiens, UniProt Q05586+Q13224)","ion current, agonist, whole-cell patch clamp",HEK293T,10 µM,,activation,2.32 ± 0.02%
O=C(N1CCCC1)n1cc(-c2ccc(-c3ccccc3)cc2)nn1,"Abhd6 (Mus musculus, UniProt Q8R2Y0)","probe labelling, inhibitor, competitive ABPP-SILAC",mouse T cells,"concentration not given, 4 h, single peptide","baseline: treated over DMSO cells, lower = stronger inhibition",SILAC activity ratio,0.79 and 0.62 and 0.53 and 0.59 and 0.55 and 0.52 and 0.54
Cc1ccc(-c2c(/C=C(\C#N)C(=O)NC(C)C)n(CCCO)c3ncnc(N)c23)cc1,"Tyrosine-protein kinase ABL1, non-phosphorylated (ABL1, Homo sapiens, UniProt P00519, F317I)","cell-free assay, competition with immobilised ligand",,1 µM,,remaining binding,60%
CCCCCCCO[C@H]1[C@H](OC)O[C@H](CO)[C@@H](O)[C@H](O)[C@@H]1O,"Type 1 fimbrin D-mannose specific adhesin, lectin domain (fimH, Escherichia coli K-12, UniProt P08191)",isothermal titration calorimetry,,"concentration not given, 25 °C",,binding stoichiometry,0.98 ± 0.01
CC(C)Oc1cc(Cl)ccc1CNc1cc(-c2ccccc2)nc2ncnn12,"GPR3 (Homo sapiens, UniProt P46089, R152A)","cAMP level, cAMP GloSensor",,10 µM,higher = more cAMP,cAMP luminescence,17400 a.u. and 15600 a.u. and 16500 a.u. and 12500 a.u.
CCCCCC(O)/C=C/C=O (stereo not drawn),"Ketosamine-3-kinase, C24 (FN3KRP, Homo sapiens, UniProt Q9HA64)","IA-probe cysteine labelling, covalent modifier, competitive isoTOP-ABPP","proteome, soluble, MDA-MB-231","100 µM, in vitro","baseline: DMSO over compound, higher = stronger blockade",isoTOP-ABPP ratio,15
CCOC(=O)C1CCCN(CCOC23CC4CC(CC(C4)C2)C3)C1 (stereo not drawn),SLC6A9,cell-free assay,,1 µM,,remaining signal,108%
O=C(O)Cc1cc2c(cc1C(=O)c1cccc(Br)c1)OCO2,Gria2/Glutamate receptor 3,"glutamate-evoked current, whole-cell patch clamp",HEK-293T,concentration not given,,current amplitude,95 ± 11 pA
CCc1cc(O)cc2c(/C=N/NC(=N)NCCc3ccc(Cl)cc3)c[nH]c12,"RXFP3 (Homo sapiens, UniProt Q9NSD7, H379A)",,HEK-293T,,baseline: wild type,Emax,61.9 ± 4.57%
CN(CCc1ccc(Cl)c(Cl)c1)CC(O)COc1ccc(NS(C)(=O)=O)cc1 (stereo not drawn),"PKD2L1 (Homo sapiens, UniProt Q9P0L9, F514A)","ion current, patch clamp",,concentration not given,,tail current,inhibited
CC1(C)C[C@@H](Nc2cccc(-c3sc(C(=O)O)c(OCC(=O)O)c3Cl)c2)CCN1S(=O)(=O)Cc1cccc(NC(=O)CN2CCC(c3ccc4c(c3)oc(=O)n4C3CCC(=O)NC3=O)CC2)c1 (stereo partly drawn),"PTPN2 (Homo sapiens, UniProt P17706)","degrader, bio-layer interferometry",,"250 nM, biotinylated protein immobilised",higher = more binding,BLI binding response,0.571 a.u. and 0.52 a.u.
N#CN1CC[C@H](C(=O)Nc2nc3c(s2)CN(C(=O)Cn2cc(CNC(=O)CCCC[C@@H]4SC[C@@H]5NC(=O)N[C@@H]54)nn2)CC3)C1,"E3 ubiquitin-protein ligase HECTD1 (HECTD1, Homo sapiens, UniProt Q9ULT8)","probe binding, affinity probe, neutravidin pull-down LC-MS/MS","HEK293T, cell lysate","5 µM, 1 h, mean of three replicates, unit not given",higher = more pulled down,iBAQ abundance,712000
Oc1cc(O)c2cc(O[C@@H]3OC[C@H](O)[C@H](O)[C@H]3O)c(-c3ccc(O)c(O)c3)[o+]c2c1,PPO3,fluorescence quenching,,"concentration not given, 298 K",,number of binding sites,0.779
COC(=O)Cc1cc2c(cc1C(=O)c1ccccc1I)OCO2,Gria2/Glutamate receptor 3,"glutamate-evoked current, whole-cell patch clamp",HEK-293T,"concentration not given, weighted tau, 1 ms pulse, added: glutamate",,deactivation time constant,2.3 ± 0.2 ms
CCCC[C@H](NC(=O)[C@H](CCC(N)=O)NC(=O)[C@H](CCC(=O)O)NC(=O)[C@@H]1CCCN1C(=O)[C@@H](NC(=O)[C@H](C)NC(=O)[C@H](CC(N)=O)NC(=O)[C@H](CC(=O)O)NC(=O)CNC(=O)[C@@H]1CCCN1C(=O)[C@H](Cc1ccc(O)cc1)NC(=O)[C@@H](NC(=O)[C@@H]1CCCN1C(=O)[C@H](CCC(=O)O)NC(=O)[C@H](CC(C)C)NC(=O)[C@@H]1CCCN1C(=O)[C@H](C)N)C(C)C)[C@@H](C)O)C(=O)N[C@@H](C)C(=O)N[C@@H](CCC(N)=O)C(=O)N[C@@H](Cc1ccc(O)cc1)C(=O)N[C@@H](C)C(=O)N[C@@H](CCCCNC(=O)c1ccc2c(c1)C(=O)OC21c2ccc(N(C)C)cc2Oc2cc(N(C)C)ccc21)C(=O)N[C@@H](CC(=O)O)C(=O)N[C@@H](CC(C)C)C(=O)N[C@@H](CCCNC(=N)N)C(=O)N[C@@H](CCCNC(=N)N)C(=O)N[C@@H](Cc1ccc(O)cc1)C(=O)N[C@H](C(=O)N[C@@H](CC(N)=O)C(=O)N[C@@H](CCCC)C(=O)N[C@@H](CC(C)C)C(=O)N[C@H](C(=O)N[C@@H](CCCNC(=N)N)C(=O)N1CCC[C@H]1C(=O)N[C@@H](CCCNC(=N)N)C(=O)N[C@@H](Cc1ccc(O)cc1)C(N)=O)[C@@H](C)O)[C@@H](C)CC,"NPY4R (Homo sapiens, UniProt P50391, F184A)",NanoBRET binding,,"Nluc-tagged receptor F184A, unit not given",net BRET ratio,BRETmax,0.044 ± 0.0016
O=C(c1ccc(Cl)s1)N1CCc2ccccc2C1,USP14,"enzyme activity, inhibitor",,17 µM,,inhibition,22%
N[C@H]1CC[C@H](Nc2nccc(-c3cccnc3Oc3ccc(NC(=O)NC4CC4)c4ccccc34)n2)CC1,"Phosphatidylethanolamine-binding protein 1 (Homo sapiens, UniProt P30086)","kinobead competition pulldown, refers to: PEBP1",HEK293/HCT116 lysate mixture,"10 µM, 1 h, 4 °C",lower = stronger competition,log2 LFQ intensity,18.7 and 19.1 and 22 and 19.8
C#CCN1CCN(c2nc(N3CCN(c4ccc(Cc5cc(CNC(=O)[C@@H]6C[C@@H](O)CN6C(=O)[C@@H](NC(=O)C6(F)CC6)C(C)(C)C)c(O)cc5-c5scnc5C)cc4)CC3)nc(N3CCN(C(=O)C4CC4)C3)n2)CC1=O,"VHL/BRD9 (Homo sapiens, UniProt P40337+Q9H8M2)","BRD9 degradation, degrader, HiBiT",HEK293T BRD9-HiBiT,15 h,,Dmax,47%
CO[B-]1(OC)n2c(C)cc(C)c2C(CCCN2CC=C(c3ccccc3)CC2)=C2C(C)=CC(C)=[N+]21,SLC6A9,cell-free assay,,1 µM,,remaining signal,84%
CCCCCCOc1ccc(C(=O)OCCN2CC=CCC2)cc1,"CHRM1 (Homo sapiens, UniProt P11229)",,membranes,"1 µM, 15 h, no carbachol",baseline: control,basal binding,1.02 ± 0.03 fold
Nc1ncc2c(n1)-c1c([nH]c3ccc(C4=CCOCC4)cc13)CCC2,"Tyrosine-protein kinase ABL1, non-phosphorylated (ABL1, Homo sapiens, UniProt P00519, Q252H)","binding, competition with immobilised ligand",,1 µM,,remaining binding,100%
CC[C@H](C)[C@H](NC(=O)[C@@H](NC(=O)[C@@H](NC(=O)[C@@H](NC(=O)[C@H](CCCNC(=N)N)NC(=O)[C@H](CCC(=O)O)NC(=O)[C@H](CCC(=O)O)NC(=O)[C@H](C)NC(=O)[C@H](CCC(=O)O)NC(=O)CNC(=O)[C@H](C)NC(=O)CN)C(C)C)C(C)C)C(C)C)C(=O)N[C@@H](CO)C(=O)N[C@@H](CO)C(=O)N[C@@H](CO)C(=O)N[C@@H](CCC(=O)O)C(=O)N[C@@H](CC(=O)O)C(=O)N[C@@H](CO)C(=O)N[C@@H](CC(=O)O)C(=O)N[C@@H](C)C(=O)N[C@@H](CCC(=O)O)C(=O)N[C@@H](CC(N)=O)C(=O)N[C@@H](CO)C(=O)N[C@@H](CO)C(=O)N[C@@H](CO)C(=O)N[C@@H](CCCNC(=N)N)C(=O)N[C@@H](Cc1ccc(O)cc1)C(=O)O,"Small ubiquitin-related modifier 1 (Homo sapiens, UniProt P63165, C52A)",isothermal titration calorimetry,,"concentration not given, pH 7.4, SUMO1 construct",,enthalpy change (ΔH),0.5 ± 0.04 kcal/mol
Brc1cccc(-c2cc(CN3c4ccccc4C=Cc4ccccc43)on2)c1,PPO3,"enzyme activity, inhibitor",,concentration not given,,apparent Km,7.62 mM
OCc1nnc2n1N=C(c1ccc(Cl)cc1)CS2,USP14,"enzyme activity, inhibitor",,17 µM,,inhibition,30%
C=CC(=O)N1CC2(CCN(c3nc(OC4CCN(CCCOC)CC4)nc4c(OCC(F)(F)F)c(-c5c(C)ccc6[nH]ncc56)c(C5CC5)cc34)CC2)C1,"GTPase KRas, GDP-bound (KRAS, Homo sapiens, UniProt P01116, A146T)",SPR,,,,dissociation rate constant koff,0.0443 ± 0.0019 s⁻¹
Oc1nc2ncc(Br)cc2[nH]1,USP14,"enzyme activity, inhibitor",,17 µM,,inhibition,88%
Cc1cc(C)cc(COc2cc3c(cc2OCc2cc(C)cc(C)c2)C2CC(O)(Cc4cn(CCOCCOCCNC(=O)CCCCC5SCC6NC(=O)NC65)nn4)CC(C)N2CC3)c1 (stereo not drawn),"ATP-dependent RNA helicase DDX39A (Homo sapiens, UniProt O00148)","biotinylated probe pull-down, refers to: DDX39A",,10 µM probe,baseline: heavy over light,SILAC ratio,3.68
Cc1cc(=O)oc2cc(NC(=O)CCCCCCC(=O)NO)ccc12,"HDAC8 (Homo sapiens, UniProt Q9BY41)",ITC,phosphate buffer,"concentration not given, pH 7.5",,binding stoichiometry,0.8
O=C1c2sc(-c3ccc(N4CCC(F)C4)nc3F)nc2CCN1c1cccnc1 (stereo not drawn),"TAR DNA-binding protein 43, aggregated (TARDBP, Homo sapiens, UniProt Q13148)",saturation autoradiography,"human, FTLD-TDP type A brain sections",1.16 nM,,specific binding,23.9 nM
Cc1cccc2c1N(C(=O)n1ccnn1)CC2,"KAI2 (Arabidopsis thaliana, UniProt Q9SZU7, S95D)",ITC,,S95D mutant,baseline: wild type,relative affinity,65.3%
COC(=O)[C@@]1(C)C=C(C(=O)Nc2cccc(C(=O)Nc3ccc(Nc4nccc(-c5cccnc5)n4)c(C)c3)c2)C(=O)CC1,"Mitogen-activated protein kinase 8, docking groove (MAPK8, Homo sapiens, UniProt P45983)","peptide binding, inhibitor, fluorescence polarization",,"100 µM, added: JIP1 peptide probe",,normalized fluorescence polarization,0.789

# Repeated from above:
Compound,target or system,test,system,setting,how to read,endpoint,value
COC(=O)Cc1cc2c(cc1C(=O)c1ccccc1I)OCO2,Gria2/Glutamate receptor 3,"glutamate-evoked current, whole-cell patch clamp",HEK-293T,"concentration not given, weighted tau, 1 ms pulse, added: glutamate",,deactivation time constant,2.3 ± 0.2 ms
Nc1ncc2c(n1)-c1c([nH]c3ccc(C4=CCOCC4)cc13)CCC2,"Tyrosine-protein kinase ABL1, non-phosphorylated (ABL1, Homo sapiens, UniProt P00519, Q252H)","binding, competition with immobilised ligand",,1 µM,,remaining binding,100%
OC1Cc2ccccc2CC1N1CCC(c2ccc(Br)cc2)CC1 (racemic),"SIGMAR1 (Homo sapiens, UniProt Q99720)",,"rat liver (sigma2), human sigma1",,baseline: Ki sigma2 over Ki sigma1,selectivity ratio,8.1
